Measurements gathered from unrelated publications.
Parts stem from different laboratories: compare values within a part only. Positions count from the first letter of the parent shown.

Set 1
Target: RNA binding protein fox-1 homolog 2, RRM domain, GST-SBP tag (RBFOX2, Homo sapiens, UniProt O43251-10, residues 100-194)
Technique: RNA Bind-n-Seq
Form: RNA
Sample: in vitro
Concentration: 365 nM
Notes: natural RNA segment, single round, ends assumed
Baseline: no-protein control
Direction: higher = stronger binding
Constant ends, left off below: GGGAGUUCUACAGUCCGACGAUC … UGGAAUUCUCGGGUGCCAA
Target sequence (chain): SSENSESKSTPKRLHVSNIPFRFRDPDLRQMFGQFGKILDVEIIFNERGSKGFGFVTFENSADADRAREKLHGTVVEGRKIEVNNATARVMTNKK
`AGGUGUUUCUCCUUCUGGAUGAUUCAUCCCAAAGCCUUCCCACCCAGGUGUUCUCUGAAAGCUUAGCCUUAAGAGAACACGCAGAGAGUUUCCCUAGAUAUACUCCUGCC` — result for “RBNS enrichment (R)”: 0.214.
Under “RBNS enrichment (R)”, `CUUAACUCAUGUCCCAUCUAUCCUCAGCUGGCCUUGGACCUACAUAGGAGUUGAAUGGGGAGGGGCUACAAUGGGUCUUCCUGUGGUUGGUCCUGAUGUUGUAUGUACUA` is recorded as 0.594.
`AAAUGUGAGUGCCCUUGAUCUUGUAUUGAUCAGUGCCAAUGUACUGGGAAAGCAGGUACCCCAGUGAAACUGGUCUGUGCUUGGUUUAACAGCUCCAACAAUUUCAGAUC`: “RBNS enrichment (R)” 0.594.
`GGGCGCUCCUCUCUGCACACCUACUAGUCACCAGAGACUUUAGGGGGUGGGAUUCCACUCGUGUGUUUCUAUUUUUUGAAAAGCAGACAUUUUAAAAAAUGGUCACGUUU`: “RBNS enrichment (R)” 0.473.
For `CCCUAGCCCCCCUUGCCCCUUAUUUCUUCCCUGCUUCCCUCGAACCCAGAGAUUUUUGAGGGAUGAACGGGUAGACAAGGACUGAGAUUGCCUCUGACUUCCUCCUCCCC`, “RBNS enrichment (R)” read 0.746.
Under “RBNS enrichment (R)”, `AAUAUUAAGGUCUUGCCAAGCUUCUGAUGAUUCACACCUGUACUACUGAUUAUUAAGCAGGACAGACUGAGCUUUCUGUUGCAAAUACCUUGGAGGAGAAAGUAAUUUCU` is recorded as 0.273.
For `ACACAUAAAGACAUUAGCUGAAAAAAUAGAGUGAAAAUCAACUAUUUUUUACUCCCGCUAAUUUCAAUCAAUCGUUUUCAAAAGCGCACGAGAUUCACUCAUUGGAUUUA`, “RBNS enrichment (R)” read 0.59.
`UAACUGUAUAAAAUGUUCAUUUUACACAAUAUUUAAUUAAAGUAUUUCUUGUCUGUGAAUUUCACUUUUGGUAGUUUUAUCUGUUUUGACUAUUAAAAUGACUGACAAAU`: “RBNS enrichment (R)” 0.445.
For `AAGAGCCAGAGGAGUUUUUGCUGGGACAAAUACUGGUCCAAACAACUCAAAUACUACUUUUCAAAAGAGACCGAAGGAAGAGGAAUGGGAUCCAGAAUAUACCCCAAAGA`, “RBNS enrichment (R)” read 0.495.
`CCUUUCUUGGGGUUUCUUUUCUGUUUUUCUUUCCGGAAGAGAAGGGCCUGAGAAAGGGCCAUGCCAGGGCACAGUGCUGGGUUGCCACACAUGGGAGGGCAGCUUCUAGC`: “RBNS enrichment (R)” 0.324.
`AAUUGAAUGGCAGUUAUCACUAAAUAAAAUUCUUUUCUGAGUCUCUCCCGAGAGUGGCAGUCCUUUGAAUCGCUUCCCAGGGUGAAAGAUGGAAAGAGAUGAGCCUAAGG`: “RBNS enrichment (R)” 0.323.
`GUGAACAAAAGGGAUGUGUUAUGGGGCUGGAGGUGUGAUUAGGUAGGAGGGAAACUGUUGGACCGACUCCUGCCCCCUGCUCAACACUGACCCCUCUGAGUGGUUGGAGG` — result for “RBNS enrichment (R)”: 0.627.

Set 2
Target: CCNB1, cyclin fold, Cln2 fusion (human)
Technique: yeast growth competition, sequencing
Sample: yeast
Notes: weak parent motif
Baseline: not given
Direction: higher = stronger binding
Starting sequence: SAMHD1 docking peptide (human); ASKSRVQLFKDDP
`ASKSRVQLFKDIP [D12I]` — result for “normalised enrichment score”: 0.235.
For `ASKLRVQLFKDDP [S4L]`, “normalised enrichment score” read 0.742.
`ASKSRVQLSKDDP [F9S]` — result for “normalised enrichment score”: 0.226.
For `ASKSRVCLFKDDP [Q7C]`, “normalised enrichment score” read 0.344.
Under “normalised enrichment score”, `ASKSRSQLFKDDP [V6S]` is recorded as -0.232.
For `ASKSRVRLFKDDP [Q7R]`, “normalised enrichment score” read 0.792.
`ASKSRNQLFKDDP [V6N]`: “normalised enrichment score” 0.113.
`ASKSRVQLFNDDP [K10N]`: “normalised enrichment score” 0.386.
Under “normalised enrichment score”, `ASISRVQLFKDDP [K3I]` is recorded as 0.144.
`ASKSRVQLFLDDP [K10L]`: “normalised enrichment score” 0.469.
Under “normalised enrichment score”, `ACKSRVQLFKDDP [S2C]` is recorded as 0.399.
Under “normalised enrichment score”, `ASKSRVQLLKDDP [F9L]` is recorded as 0.341.
`ASKSRVQSFKDDP [L8S]` — result for “normalised enrichment score”: -0.0778.
For `ASKSNVQLFKDDP [R5N]`, “normalised enrichment score” read -0.239.
`ASKSRQQLFKDDP [V6Q]` — result for “normalised enrichment score”: -0.345.
Under “normalised enrichment score”, `ASKSRVQLFKDCP [D12C]` is recorded as 0.355.

Set 3
Target: ABI1, truncated, D143A, DHFR fusion (Arabidopsis thaliana)
Technique: DHFR PCA, deep sequencing
Sample: yeast
Notes: methotrexate growth selection, single substitutions
With: (+)-ABA 0.11 µM
Baseline: wild-type fitted maximum
Direction: higher = stronger binding
Starting sequence: PYL1, truncated, DHFR fusion (Arabidopsis thaliana); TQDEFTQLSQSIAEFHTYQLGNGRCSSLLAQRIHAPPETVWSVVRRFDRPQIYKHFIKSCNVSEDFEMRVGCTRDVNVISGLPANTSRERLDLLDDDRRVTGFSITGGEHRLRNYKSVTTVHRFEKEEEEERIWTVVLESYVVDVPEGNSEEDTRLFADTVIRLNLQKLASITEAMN
Under “relative binding score”, `L29M` is recorded as 7.4%.
`I79F` — result for “relative binding score”: 25.7%.
Under “relative binding score”, `M176T` is recorded as 16.5%.
For `W41S`, “relative binding score” read -4.15%.
For `T17D`, “relative binding score” read -6.96%.
`R155Y` — result for “relative binding score”: -5.17%.
Under “relative binding score”, `V78N` is recorded as 42.2%.
`V62C`: “relative binding score” -0.0294%.
Under “relative binding score”, `T1E` is recorded as 38.9%.
Under “relative binding score”, `E38Q` is recorded as -2.7%.
`L164A`: “relative binding score” 14.3%.
`C60D` — result for “relative binding score”: -6.21%.
For `F124V`, “relative binding score” read 38.9%.
For `L93E`, “relative binding score” read -1.58%.
`E89H` — result for “relative binding score”: -1.89%.
Under “relative binding score”, `L166E` is recorded as 8.92%.
For `T1C`, “relative binding score” read 34.8%.

Set 4
Target: Sal-like protein 4, full length isoform A (SALL4, Homo sapiens, UniProt Q9UJQ4, residues 1-1053)
Sequence of UniProt Q9UJQ4 (whole entry, looked up): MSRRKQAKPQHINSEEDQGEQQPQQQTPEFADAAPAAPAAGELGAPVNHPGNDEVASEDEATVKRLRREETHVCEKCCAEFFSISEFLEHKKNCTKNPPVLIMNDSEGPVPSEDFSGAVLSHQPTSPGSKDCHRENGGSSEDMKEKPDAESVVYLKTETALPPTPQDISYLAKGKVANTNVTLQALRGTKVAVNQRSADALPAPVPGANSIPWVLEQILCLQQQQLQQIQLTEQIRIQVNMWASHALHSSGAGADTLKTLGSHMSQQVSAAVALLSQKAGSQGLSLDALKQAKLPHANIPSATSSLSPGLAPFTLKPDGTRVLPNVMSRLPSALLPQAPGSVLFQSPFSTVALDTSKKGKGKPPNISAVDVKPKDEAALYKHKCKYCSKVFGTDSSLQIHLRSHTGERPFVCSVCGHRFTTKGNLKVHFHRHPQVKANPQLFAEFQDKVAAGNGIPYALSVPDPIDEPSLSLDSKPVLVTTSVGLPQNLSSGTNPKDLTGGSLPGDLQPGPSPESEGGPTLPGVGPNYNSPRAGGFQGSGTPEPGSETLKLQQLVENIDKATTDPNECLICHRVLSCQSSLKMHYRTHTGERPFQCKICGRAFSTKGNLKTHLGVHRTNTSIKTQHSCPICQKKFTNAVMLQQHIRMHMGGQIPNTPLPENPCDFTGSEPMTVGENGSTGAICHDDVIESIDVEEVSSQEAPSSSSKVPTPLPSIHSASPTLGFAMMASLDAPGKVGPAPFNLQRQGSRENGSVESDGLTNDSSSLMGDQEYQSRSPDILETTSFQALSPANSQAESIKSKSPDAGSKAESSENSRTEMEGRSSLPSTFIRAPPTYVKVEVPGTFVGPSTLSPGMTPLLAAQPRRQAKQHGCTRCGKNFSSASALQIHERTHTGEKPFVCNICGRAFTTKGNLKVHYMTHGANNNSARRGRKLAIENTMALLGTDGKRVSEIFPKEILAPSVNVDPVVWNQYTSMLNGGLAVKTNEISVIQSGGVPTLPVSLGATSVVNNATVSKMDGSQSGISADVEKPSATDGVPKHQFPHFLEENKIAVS
Technique: universal PBM
Form: double-stranded DNA, one strand shown
Sample: in vitro
Concentration: 600 nM
Notes: 8-mer, flanks averaged, mean of replicates
Direction: higher = stronger binding
`CGACAACA` gave an E-score of -0.0674.
The E-score of `ACGGTATA` is reported as -0.06.
`ACACACGG` gave an E-score of -0.29.
The E-score of `ACCGGAAG` is reported as -0.0119.
With `AGATATTC` the E-score was 0.194.
With `TAACGCAA` the E-score was 0.233.
With `CAGCAAAG` the E-score was 0.0295.
For `GAGTGGGC`, the E-score was -0.199.
`AAATCGTA` gave an E-score of 0.29.
With `AGCGAAAA` the E-score was 0.0828.
`ACGTGCGA` gave an E-score of -0.181.
`AACCGTCC` has an E-score of -0.0873.
The E-score of `GTAGGTCA` is reported as -0.181.
With `AAGTCATG` the E-score was 0.0852.
With `AGCCGGAG` the E-score was -0.218.
For `AGATTGCG`, the E-score was 0.0396.
`CCTTAGGA` gave an E-score of -0.0538.
The E-score of `TTGGTAAA` is reported as 0.245.
`CTTGCGGC` has an E-score of -0.289.
The E-score of `AGTTGCGG` is reported as -0.0304.
`AACGGCCA` gave an E-score of -0.0441.
For `CTGGTTGA`, the E-score was -0.175.
The E-score of `TAAAGACA` is reported as 0.0783.
For `CGCAGGTA`, the E-score was -0.0842.
With `CCACTTGA` the E-score was 0.0435.

Set 5
Target: RING finger protein unkempt homolog, zinc fingers 1-6, GST-SBP tag (UNK, Homo sapiens, UniProt Q9C0B0, residues 30-357)
Technique: RNA Bind-n-Seq
Form: RNA
Sample: in vitro
Concentration: not given
Notes: RNA with constant flanks, human-mouse chimeric sites, ends assumed
Baseline: input RNA pool
Direction: higher = stronger binding
Constant ends, left off below: GGGAGUUCUACAGUCCGACGAUC … CAACAGAGGAUUGAGCAUCA
Construct (chain): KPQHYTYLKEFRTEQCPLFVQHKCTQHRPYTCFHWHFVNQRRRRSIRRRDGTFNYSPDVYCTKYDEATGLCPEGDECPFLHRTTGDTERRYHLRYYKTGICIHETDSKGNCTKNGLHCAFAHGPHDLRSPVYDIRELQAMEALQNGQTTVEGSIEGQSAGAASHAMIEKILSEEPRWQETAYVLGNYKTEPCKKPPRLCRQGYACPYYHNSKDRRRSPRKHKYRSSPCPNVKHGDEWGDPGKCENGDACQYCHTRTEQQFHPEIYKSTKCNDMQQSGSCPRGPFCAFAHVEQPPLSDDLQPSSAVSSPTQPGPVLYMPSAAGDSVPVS
`UAAGUCCUGUGCCAGCACUUCGCUCAUAAAGUUUUAAAUUCUGGACCAAUAGUGUUUGUUUCCUGAUUAUUGUAUCCAAUACUUUAUCUAGUAUGUAACUCACUCUUACUGAUAAUAAAA` has a bound/input enrichment of 1.45 ratio.
The bound/input enrichment of `GGCUGCUGGUGACUGUCCUGGAGUGGCUGGAGUUCCCCCGGAACCUGGGCCAGACUAAUUAUAGAAAAUGCCAAGUAGGAAGUUUGUUGAGGGUGAAGUGGUCAGAGGCCGAUGGCCUGG` is reported as 3.33 ratio.
With `GAGCCCAGCCGGCAGUUUGUAAAGGACUCAAUUCGGCUGGUUAAAAGAUGCACCAAACCUGAUAGAAAAGAAUUCCAGAAGAUUGCCAUGGCUACAGCAAUAGGAUUUGCUAUCAUGGGA` the bound/input enrichment was 0.172 ratio.
`AGGAGGAGGUUAAAGGGUGAAAAUGGGAUGGAGGAUUGUGUCAUGGCUCUGGAGACACUGUUCAGUGUCCUGCUUUCUCUGUGCAGACUGAUGGCCCCUUACACGCCCUUUCUGACUGAG` has a bound/input enrichment of 0.118 ratio.
With `ACCAUUUUCGCGGUUCAGGCUUUGUGUUGUAUUUACUCUAUGUAUUAAAUUAUUAUUCUGCUUAGCUUAUAAUAAGGAUAAUUGCAUUUAAAGAGGUUACUGAAUGUUACUCUGAAACUU` the bound/input enrichment was 0.374 ratio.
With `GACCCACAGUGGUCUGAGGAGCAACUCAUUGCUGCAAAAUUUUGCUUUGCUGGCCUUGUUAUAGGGCAGACUGAAGUGGACAUCAUGAGUCAUGCCACACAAGCUAUUUUUGAAAUUCUG` the bound/input enrichment was 0.169 ratio.
With `UACUGCUGCUUUCAACUUAAAUCACUGAGGCAUCUCUACUGUUCUGUGAGCAUCAGGACUGUAGCGCUGUGUCACCACAUGAGAGUUCAGAAGCAGCCUUUCUGUGGAGAGUGAGAAUGA` the bound/input enrichment was 0.0657 ratio.
`GCCACCAGAUCCCAGAAACAUGACCCUUGCUGCCUACAAGGAGAAGAUGAAGGAGCUCCCGCUGGUGUCCUUGUUCUGCUCCUGCUUCCUGGCCGAUCCCCUGAAUAAAUCAUCCUACAA` has a bound/input enrichment of 0.226 ratio.
For `CUGGCCUGGCCCUCCCCUCUAGUGACCUUUCGUAUAGUCACUGCUUCUGCAUCAGAUAUUUUUAGCUGCAACUCCCUACUGGGUGGGGCACCCAUUUCAGGCAGAAGGUUUUGGUACCCU`, the bound/input enrichment was 0.53 ratio.
For `CUCUUUGAAUCUUUCAAGAGUUUUGAAGGUCUCUUUUAUUUUCUGGGGUCCAUUGUUAACUUUAGUCAGGACCCAGAUGUGCACUUUAAAUAUAUUCAGGCAGCUUGCAAGACUGGGCAA`, the bound/input enrichment was 0.696 ratio.
With `CUUAAUGUUAAUAUUUUUGAAUAAAUGAAGCUAAAAUGUCUGCUUUUGGUACAACACGCAUUAAUAAAAGGUUAAGUUUUGUUUUCCCUCCACUGAAGUAAUACUUACUCAGAAAAAAAC` the bound/input enrichment was 0.114 ratio.

Single results of other studies
`PhoQ, residues 284 288 289 292 302 303 AQGLTV` gave a fold induction of 8.83 (PhoP, residues 12 14 15 18 19 LHATL (Escherichia coli, UniProt P23836); Sort-seq, refers to: YFP reporter; E. coli; PhoQ-PhoP variant library, with: 10 µM Mg2+; baseline: high Mg2+ state, higher = stronger signaling).

For quick reference, copied from above (set 4):
For `GAGTGGGC`, the E-score was -0.199.
`CCTTAGGA` gave an E-score of -0.0538.
With `AAGTCATG` the E-score was 0.0852.
The E-score of `GTAGGTCA` is reported as -0.181.
The E-score of `TAAAGACA` is reported as 0.0783.
For `AGATTGCG`, the E-score was 0.0396.
`AACCGTCC` has an E-score of -0.0873.
The E-score of `AGTTGCGG` is reported as -0.0304.
For `CGCAGGTA`, the E-score was -0.0842.
The E-score of `ACGGTATA` is reported as -0.06.
With `CCACTTGA` the E-score was 0.0435.
With `AGCGAAAA` the E-score was 0.0828.
With `TAACGCAA` the E-score was 0.233.
With `AGATATTC` the E-score was 0.194.
